Results of several laboratories.
± marks the error that the study gave.

| SMILES | assay | test system | setting | scale | quantity | value |
| --- | --- | --- | --- | --- | --- | --- |
| CCCC[C@H](NC(=O)CNC(=O)CNC(=O)CN1CCN(CC(=O)O)CCN(CC(=O)O)CCN(CC(=O)O)CC1)C(=O)N[C@H]1CC(=O)NCCCC[C@@H](C(N)=O)NC(=O)[C@H](Cc2c[nH]c3ccccc23)NC(=O)[C@H](CCCNC(=N)N)NC(=O)[C@@H](Cc2ccccc2)NC(=O)[C@H](Cc2c[nH]cn2)NC1=O [copper-64 labelled] |  | C57 mouse female B16/F1 melanoma, urine | intravenous, 0.037 MBq, 4 h |  | urinary excretion | 62.2 ± 4.43% |
| Cn1c(=O)oc2ccc(-c3ccc(CC(C#N)NC(=O)C4CNCCCO4)c(F)c3)cc21 (centres unmarked) | item: alanine aminotransferase increased | human | 15 mg single dose, fasted |  | subjects with TEAE | 0% |
| O=C(CCc1ccc(CNC(C(=O)OC2CCCC2)C2CCCCC2)cn1)NO (centres unmarked) |  | human | 60 mg, single dose, geometric mean |  | CL/F | 243 L/h |
| CC(=O)N[C@H](CC(=O)O)C(=O)N[C@H](Cc1c[nH]c2ccccc12)C(=O)N[C@H](Cc1ccccc1)C(=O)N[C@H](CCCCN)C(=O)N[C@H](C)C(=O)N[C@H](Cc1ccccc1)C(=O)N[C@H](Cc1ccc(O)cc1)C(=O)N[C@H](CC(=O)O)C(=O)N[C@H](CCCCN)C(=O)N[C@@H](C(=O)N[C@H](C)C(=O)N[C@H](CCC(=O)O)C(=O)N[C@H](CCCCN)C(=O)N[C@H](Cc1ccccc1)C(=O)N[C@H](CCCCN)C(=O)N[C@H](CCC(=O)O)C(=O)N[C@H](C)C(=O)N[C@H](Cc1ccccc1)C(N)=O)C(C)C |  | statin-treated high-risk CHD women, plasma | oral, 500 mg daily, day 1, 0 to 2 h, mean, all subjects |  | AUC(0-t) | 247 ng·h/mL |
| CC1(C)C(=CC=C(C=CC2=[N+](CCC[N+](C)(C)C)c3ccc(S(=O)(=O)[O-])cc3C2(C)C)Oc2ccc(CCC(=O)[O-])cc2)N(CCC[N+](C)(C)C)c2ccc(S(=O)(=O)[O-])cc21 |  | 100% serum | pH 7.4 |  | extinction coefficient | 206000 M⁻¹ cm⁻¹ |
| CCCC[C@@H]1NC(=O)[C@@H](NC(=O)[C@H](CCC(=O)O)NC(=O)CNC(=O)CN2CCN(CC(=O)O)CCN(CC(=O)O)CCN(CC(=O)O)CC2)CCCCNC(=O)C[C@@H](C(N)=O)NC(=O)[C@H](C(C)C)NC(=O)[C@@H]2CCCN2C(=O)[C@H](CCCNC(=N)N)NC(=O)CNC(=O)[C@H](Cc2c[nH]c3ccccc23)NC(=O)[C@H](CCCNC(=N)N)NC(=O)[C@@H](Cc2ccccc2)NC(=O)[C@H](Cc2c[nH]cn2)NC(=O)[C@H](CCC(=O)O)NC1=O [gallium-67 labelled] |  | C57 mice, B16/F10 lung metastases | intravenous, 0.037 MBq, 2 h |  | lung uptake | 1.44 ± 0.75 %ID/g |
| CCOc1ccc2c(c1)C(C)=CC(C)(C)N2c1cc(OCC)cc2c1NC(C)(C)C=C2C | LC-MS/MS | piglets, subcutaneous fat | oral in feed, 50 mg/kg feed ethoxyquin, 42 days |  | tissue residue | 863 ± 392 ng/g |
| CC[C@H](C)[C@H](NC(=O)[C@@H]1CCCN1C(=O)CNC(=O)[C@H](Cc1ccccc1)NC(=O)[C@H](CC(N)=O)NC(=O)[C@H](CC(N)=O)NC(=O)[C@H](CO)NC(=O)[C@H](CO)NC(=O)[C@H](Cc1c[nH]cn1)NC(=O)[C@@H](NC(=O)[C@H](CC(C)C)NC(=O)[C@H](Cc1ccccc1)NC(=O)[C@H](CC(N)=O)NC(=O)[C@H](C)NC(=O)[C@H](CC(C)C)NC(=O)[C@H](CCCNC(=N)N)NC(=O)[C@H](CCC(N)=O)NC(=O)[C@@H](NC(=O)[C@H](C)NC(=O)[C@@H]1CSSC[C@H](NC(=O)[C@@H](N)CCCCN)C(=O)N[C@@H](CC(N)=O)C(=O)N[C@@H]([C@@H](C)O)C(=O)N[C@@H](C)C(=O)N[C@@H]([C@@H](C)O)C(=O)N1)[C@@H](C)O)C(C)C)C(=O)N[C@@H](CC(C)C)C(=O)N[C@@H](CO)C(=O)N1CCC[C@H]1C(=O)N[C@H](C(=O)N[C@@H](CC(N)=O)C(=O)N[C@H](C(=O)NCC(=O)N[C@@H](CO)C(=O)N[C@@H](CC(N)=O)C(=O)N[C@H](C(=O)N[C@@H](Cc1ccc(O)cc1)C(N)=O)[C@@H](C)O)C(C)C)[C@@H](C)O | ion mobility mass spectrometry | nitrogen drift gas | monomer ion charge +3 |  | collision cross section | 546.5 ± 4.8 Å² |
| Cc1ccc(-c2ccc(-c3cc4sccc4o3)cn2)nc1 | TCSPC | toluene |  |  | fluorescence lifetime | 0.86 ns |
| CCCC[C@H](NC(C)=O)C(=O)N[C@H]1CC(=O)NCCCC[C@@H](C(=O)N[C@@H](C(=O)N2CCC[C@@H]2C(N)=O)C(C)C)NC(=O)[C@H](Cc2c[nH]c3ccccc23)NC(=O)[C@H](CCCN=C(N)N)NC(=O)[C@@H](Cc2ccc3ccccc3c2)NC(=O)[C@@H]2CCCN2C1=O |  | dog | day 1, start of treatment |  | mean corpuscular haemoglobin | 23.7 pg |
| CC(C)C[C@H](NC(=O)[C@H](CCCCN)NC(=O)CNC(=O)[C@H](CC(C)C)NC(=O)[C@@H](NC(=O)[C@@H]1CSSC[C@H](N)C(=O)N[C@@H](CO)C(=O)N[C@@H](CC(N)=O)C(=O)N[C@@H](CC(C)C)C(=O)N[C@@H](CO)C(=O)N[C@@H]([C@@H](C)O)C(=O)N1)C(C)C)C(=O)N[C@@H](CO)C(=O)N[C@@H](CCC(N)=O)C(=O)N[C@@H](CCC(=O)O)C(=O)N[C@@H](CC(C)C)C(=O)N[C@@H](Cc1c[nH]cn1)C(=O)N[C@@H](CCCCN)C(=O)N[C@@H](CC(C)C)C(=O)N[C@@H](CCC(N)=O)C(=O)N[C@H](C(=O)N[C@@H](Cc1ccc(O)cc1)C(=O)N1CCC[C@H]1C(=O)N[C@@H](CCCNC(=N)N)C(=O)N[C@H](C(=O)N[C@@H](CC(N)=O)C(=O)N[C@H](C(=O)NCC(=O)N[C@@H](CO)C(=O)NCC(=O)N[C@H](C(=O)N1CCC[C@H]1C(N)=O)[C@@H](C)O)[C@@H](C)O)[C@@H](C)O)[C@@H](C)O | FTIR spectroscopy | KBr tablet | powder, inlet air 130 °C |  | FTIR amide I band | 1660 cm⁻¹ |
| CC(=O)N[C@H](CSSC[C@H](N)C(=O)O)C(=O)N[C@H](C)C(=O)N[C@H](CCCNC(=N)N)C(=O)N[C@H](CCCNC(=N)N)C(=O)N[C@H](CCCNC(=N)N)C(=O)N[C@H](C)C(=O)N[C@H](CCCNC(=N)N)C(N)=O |  | male human, plasma | intravenous, 5 mg, single dose, healthy volunteers |  | Cmax | 273 ng/mL |
| CCCC[C@H](NC(=O)[C@H](CC(C)C)N(C)C(=O)CNC(=O)[C@@H](NC(=O)[C@H](Cc1ccccc1)NC(=O)[C@H](CCCCN)NC(=O)[C@@H](N)CC(=O)O)C(C)C)C(N)=O | potentiometric titration |  | third pKa |  | pKa | 4.73 ± 0.15 |
| CCCC[C@H](NC(=O)CNC(=O)CNC(=O)CN1CCN(CC(=O)O)CCN(CC(=O)O)CCN(CC(=O)O)CC1)C(=O)N[C@H]1CC(=O)NCCCC[C@@H](C(N)=O)NC(=O)[C@H](Cc2c[nH]c3ccccc23)NC(=O)[C@H](CCCNC(=N)N)NC(=O)[C@@H](Cc2ccccc2)NC(=O)[C@H](Cc2c[nH]cn2)NC1=O [indium-111 labelled] |  | C57 mouse, female, B16/F1 melanoma | intravenous, 0.037 MBq, 24 h |  | tumour to blood ratio | 338 |
| CNC(=O)N[C@]1(C)CCC[C@@]2(C)C3CC[C@@]4(C)C[C@]3(CCC21)CC4=O (single isomer, unassigned) |  | processed rat plasma | 40 ng/mL, 24 h, room temperature, autosampler stability | relative to: nominal concentration | relative error | 10.2% |
| CC(O)c1cc(Cl)ccc1Cn1c(=S)[nH]c(=O)c2[nH]ccc21 (centres unmarked) |  | Sprague-Dawley rat, female, plasma | oral, 125 mg/kg/day | relative to: rat over human 10 mg | exposure ratio | 2.5 |

| SMILES | assay | test system | setting | scale | quantity | value |
| --- | --- | --- | --- | --- | --- | --- |
| [11CH3]c1ccc2nc(C3CCC3)n(-c3ccc4[nH]ncc4c3)c2n1 |  | human female, small intestine |  |  | absorbed radiation dose | 16 µSv/MBq |
| CCCCC/C=C/C=C/C(=O)NCC(C)C |  | rat plasma | 250 ng/mL, three freeze-thaw cycles medium QC | relative to: nominal concentration | relative error | 0.27% |
| Cc1cc(O)cc(O)c1C(=O)c1c2c3c(c(O)cc(C)c3oc1=O)C(=O)c1c(O)cc(O)cc1-2 |  | KM mouse male, plasma | intraperitoneal, 15 mg/kg |  | CL/F | 11 mL/min/kg |
| COc1ccc(N2CCOCC2)c2sc(NC(=O)c3ccnc(CN4CCCC4)c3)nc12 | photometric titration |  |  |  | pKa (basic) | 8.6 |
| CCC(=O)N[C@@H](C)C(=O)OCC(=O)N[C@@H](C)C(=O)O |  | water | pH 5, 65 °C |  | depolymerization half-life | 49.8 h |
| C#CCOc1ccc(/C=C2\SC(=O)N(CC(=O)NCc3ccccc3)C2=O)cc1 |  | water | 298.15 K |  | standard Gibbs energy of solution | 8.37 kcal/mol |
| C#CCNC(=O)C(CC(C)(C)F)NC(c1ccc(-c2ccc(S(C)(=O)=O)cc2)cc1)C(F)(F)F (centres unmarked) | LC-MS UV trace | aqueous buffer | concentration not given, 23 h, pH 7.5, 37 °C, together with: cysteine 10 mM |  | cysteine adduct formation | 0% |
| Cc1ccc(OCC(=O)N(Cc2cccs2)c2ccn[nH]2)cc1 |  | male beagle dog, plasma | intravenous, 1.0 mg/kg |  | half-life | 0.56 h |
| C[C@]12C[C@H](c3ccc(C(N)=O)cc3)C3=C4CCC(=O)C=C4CC[C@H]3[C@@H]1CC[C@@]2(O)C(F)(F)C(F)(F)F |  | human liver microsomes | 100 % absorption assumed |  | maximal oral bioavailability | 75% |
| CN1CCC[C@]1(C)/C=C/S(=O)(=O)NC(=O)Nc1c2c(cc3c1CCC3)CCC2 |  | human, plasma | oral, 100 mg single dose |  | CL/F | 1.1 L/h |
| CC(C)c1cnc(-c2cc(Cl)ccc2F)cc1Nc1ccncc1C(=O)NC(CO)CO | item: anaemia | human patients | oral, dose not given, grade 4 |  | patients with related SAE | 0% |
| COc1cc2c(cc1OC)CN(CCCCn1ccc3cc(OCC[18F])ccc31)C2 |  | male CD-1 mouse, bone | intravenous, 280 kBq, 15 min |  | tracer uptake | 4.4 %ID/g |
| O=C(NCCCN(CCCCN(CCCNC(=O)c1cccc(=O)n1[O-])C(=O)c1cccc(=O)n1[O-])C(=O)c1cccc(=O)n1[O-])c1cccc(=O)n1[O-].[89Zr+4] | radio-TLC | PBS | 1 d, pH 7.4, 37 °C, together with: Ga^3+ 10-fold excess |  | intact complex | 97.9 ± 3% |
| CC(NC(=O)OC1OC(C(=O)O)C(O)C(O)C1O)c1cc(Cl)ccc1Cn1c(=S)[nH]c(=O)c2[nH]ccc21 (centres unmarked) |  | Sprague-Dawley rat, female, plasma | oral, 125 mg/kg/day | relative to: rat over human 10 mg | exposure ratio | 2.5 |
| CCCCN1C(=O)c2cccc3c(NCCCCN4CCOCC4)ccc(c23)C1=O |  | aqueous medium | pH 6 |  | average fluorescence lifetime | 4.6 ns |
| NC[C@@H](C(=O)Nc1ccc(-c2cn[nH]c2)cc1)c1ccccc1 | OECD 405 eye irritation | New Zealand White rabbit, eye | topical, 0.1%, 96 h (day 5), scale 0 to 4 | direction not given | cornea score | 0 |

A few entries again:
| SMILES | assay | test system | setting | scale | quantity | value |
| --- | --- | --- | --- | --- | --- | --- |
| Cc1cc(O)cc(O)c1C(=O)c1c2c3c(c(O)cc(C)c3oc1=O)C(=O)c1c(O)cc(O)cc1-2 |  | KM mouse male, plasma | intraperitoneal, 15 mg/kg |  | CL/F | 11 mL/min/kg |
| CCC(=O)N[C@@H](C)C(=O)OCC(=O)N[C@@H](C)C(=O)O |  | water | pH 5, 65 °C |  | depolymerization half-life | 49.8 h |
| CC(C)C[C@H](NC(=O)[C@H](CCCCN)NC(=O)CNC(=O)[C@H](CC(C)C)NC(=O)[C@@H](NC(=O)[C@@H]1CSSC[C@H](N)C(=O)N[C@@H](CO)C(=O)N[C@@H](CC(N)=O)C(=O)N[C@@H](CC(C)C)C(=O)N[C@@H](CO)C(=O)N[C@@H]([C@@H](C)O)C(=O)N1)C(C)C)C(=O)N[C@@H](CO)C(=O)N[C@@H](CCC(N)=O)C(=O)N[C@@H](CCC(=O)O)C(=O)N[C@@H](CC(C)C)C(=O)N[C@@H](Cc1c[nH]cn1)C(=O)N[C@@H](CCCCN)C(=O)N[C@@H](CC(C)C)C(=O)N[C@@H](CCC(N)=O)C(=O)N[C@H](C(=O)N[C@@H](Cc1ccc(O)cc1)C(=O)N1CCC[C@H]1C(=O)N[C@@H](CCCNC(=N)N)C(=O)N[C@H](C(=O)N[C@@H](CC(N)=O)C(=O)N[C@H](C(=O)NCC(=O)N[C@@H](CO)C(=O)NCC(=O)N[C@H](C(=O)N1CCC[C@H]1C(N)=O)[C@@H](C)O)[C@@H](C)O)[C@@H](C)O)[C@@H](C)O | FTIR spectroscopy | KBr tablet | powder, inlet air 130 °C |  | FTIR amide I band | 1660 cm⁻¹ |
